# Results of several laboratories.
# Each numbered part is a random draw from the data of one study; scales do not carry over between parts.

# Block 1 — method: protein-binding microarray; molecule type: double-stranded DNA, one strand shown; matrix: in vitro; concentration: 250 nM; setting: 60-bp whole probe; with: salmon DNA 0.4 mg/ml; reference: random background probes; reading: higher = stronger binding; constant ends, left off below: GCCTAGCAC … GTCTTGATTCGCTTGACGCTGCTG
# Target: Interferon regulatory factor 7, full length, phosphomimetic (IRF7, Homo sapiens, UniProt Q92985, residues 1-503, S101K/S471D/S472D/S475D/S476D/S477D/S483D/S484D/S487D)
# Sequence of UniProt Q92985 (whole entry, unmodified, looked up): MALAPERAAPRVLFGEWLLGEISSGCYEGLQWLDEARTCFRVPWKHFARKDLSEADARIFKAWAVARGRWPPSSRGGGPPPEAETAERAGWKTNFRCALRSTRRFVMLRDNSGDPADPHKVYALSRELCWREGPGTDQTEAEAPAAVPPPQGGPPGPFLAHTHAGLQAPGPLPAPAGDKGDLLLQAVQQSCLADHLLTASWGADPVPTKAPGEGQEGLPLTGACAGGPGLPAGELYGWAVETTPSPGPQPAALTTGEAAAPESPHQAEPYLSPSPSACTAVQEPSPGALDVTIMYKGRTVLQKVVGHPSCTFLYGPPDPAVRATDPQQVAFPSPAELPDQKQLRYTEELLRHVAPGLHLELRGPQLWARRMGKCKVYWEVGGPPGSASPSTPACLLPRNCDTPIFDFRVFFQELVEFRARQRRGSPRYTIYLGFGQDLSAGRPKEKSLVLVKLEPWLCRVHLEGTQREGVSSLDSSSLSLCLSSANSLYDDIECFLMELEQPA
Sequence,log fluorescence
TCAACCATCTAGTTCTGACTGTGCTAG,-0.465 z-score
AATCATTTTAGTTTTCATTAGTGCTAG,1.35 z-score
GACGATATAAGTTTCGAGACGTGCTAG,4.37 z-score
TACGGTTTCGGTTTCGGGACGTGCTAG,15 z-score
TCAATTTTCATTATTGCACTGTGCTAG,0.822 z-score
TCAATTTTTTTTTTCATACTGTGCTAG,0.448 z-score
TTAGGACTGGGACTGGGCTAGTGCTAG,-0.342 z-score
TTAGGCTTCGGTATCGGTTAGTGCTAG,1.15 z-score
TTAGAACTGGGGATTGGATTAGTGCTA,-0.359 z-score
TTAGGTTTCCTTATCCTCTAGTGCTAG,2.97 z-score
GACGGTATCCTTTTCTTGACGTGCTAG,0.662 z-score
GACGGTTTCCCTCTCCTGACGTGCTAG,1.78 z-score
AACGATCTCAGACTGGAGACGTGCTAG,-0.191 z-score
GACGAACTGGTGTATCGAGACGTGCTA,-0.681 z-score
CTTCATGTTTTTTTCTACTTGTGCTAG,0.932 z-score
TTAGGTTTCGGGTAGCGGTTAGTGCTA,7.69 z-score
GACGATCTCAGACTGGAGCCGTGCTAG,-0.224 z-score

# Block 2 — target: UBE2O UBC core domain (UniProt Q9C0C9); method: yeast two-hybrid; matrix: yeast; setting: mostly zero background; reference: not given; reading: higher = stronger interaction
# B1: RNF32 RING domain (UniProt Q9H0A6); chain SLLQGDSVQPCPICKEEFELRPQVLLSCSHVFHKACLQAFEKFTNKKTCPLCRKNQYQTRVIH
# B2: ANKIB1 RING domain (UniProt Q9P2G1); chain LSPGDLDTSLCDICMCSISVFEDPVDMPCGHDFCRGCWESFLNLKIQEGEAHNIFCPAYDCFQLVPVDIIE
# B3: RFPL2 RING domain (UniProt O75678); chain MAALFQEASSCPVCSDYLEKPMSLECGCAVCLKCINSLQKEPHGEDLLCCCSSMVSRKNKIRR
# B4: RNF175 RING domain (UniProt Q8N4F7); chain LPTRSLSDNICAVCGQKIIVELDEEGLIENTYQLSCNHVFHEFCIRGWCIVGKKQTCPYCKEKVDLKRMIS
# B5: PHF7 RING domain (UniProt Q9BWX1); chain IQHGHVGEESCILCCEDLSQQSVENIQSPCCSQAIYHRKCIQKYAHTSAKHFFKCPQCNNRKEFPQEML
# B6: RNF149 RING domain (UniProt Q8NC42); chain EKGIDVDAENCAVCIENFKVKDIIRILPCKHIFHRICIDPWLLDHRTCPMCKLDVIKALGYW
# B7: TRIM10 RING domain (UniProt Q9UDY6); chain SVTSLADEVNCPICQGTLREPVTIDCGHNFCRACLTRYCEIPGPDLEESPTCPLCKEPFRPGSFRP
# B8: PEX2 RING domain (UniProt P28328); chain DNTLATSGKECALCGEWPTMPHTIGCEHIFCYFCAKSSFLFDVYFTCPKCGTEVHSLQPLK
# B9: RNF150 RING domain (UniProt Q9ULK6); chain DKETESDFDNCAVCIEGYKPNDVVRILPCRHLFHKSCVDPWLLDHRTCPMCKMNILKALGIP
# B10: UBE4A RING domain (UniProt Q14139); chain LQQQEEETYADACDEFLDPIMSTLMCDPVVLPSSRVTVDRSTIARHLLSDQTDPFNRSPLTMDQIRPNTELKEKIQRWLAERKQQKEQLE
# B11: TRIM52 RING domain (UniProt Q96A61); chain PMQTLQEEAVCAICLDYFKDPVSISCGHNFCRGCVTQLWSKEDEEDQNEEEDEWEEEEDEEAV
# Residues (chain): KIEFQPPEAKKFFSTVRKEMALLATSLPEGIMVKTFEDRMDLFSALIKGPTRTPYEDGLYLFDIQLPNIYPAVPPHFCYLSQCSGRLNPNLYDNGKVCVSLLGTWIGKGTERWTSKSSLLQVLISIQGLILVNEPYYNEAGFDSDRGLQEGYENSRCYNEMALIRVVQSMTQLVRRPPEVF
Sequence,lacZ reporter activity
LKQVSIRENCCSLCCDEVADTQLKPCGHSDLCMDCALQLETCPLCRKEIVSRIRQI (RSPRY1 RING domain (UniProt Q96DX4)),0
B1 (RNF32 RING domain),0
B2 (ANKIB1 RING domain),0
B3 (RFPL2 RING domain),0
B4 (RNF175 RING domain),0
B5 (PHF7 RING domain),0
B6 (RNF149 RING domain),0
KIKDLNEHIVCCLCAGYFVDATTITECLHTFCKSCIVKYLQTSKYCPMCNIKIHETQPLL (PCGF1 RING domain (UniProt Q9BSM1)),0
B7 (TRIM10 RING domain),0
B8 (PEX2 RING domain),0
B9 (RNF150 RING domain),0
B10 (UBE4A RING domain),0
B11 (TRIM52 RING domain),0

# Block 3 — method: RNA Bind-n-Seq; molecule type: RNA; matrix: in vitro; concentration: 365 nM; reference: no-protein control; reading: higher = stronger binding
# Target: RNA binding protein fox-1 homolog 2, RRM domain, GST-SBP tag (RBFOX2, Homo sapiens, UniProt O43251-10, residues 100-194)
# Setting: natural RNA segment, single round, ends assumed
# Constant ends, left off below: GGGAGUUCUACAGUCCGACGAUC … UGGAAUUCUCGGGUGCCAA
# Construct (chain): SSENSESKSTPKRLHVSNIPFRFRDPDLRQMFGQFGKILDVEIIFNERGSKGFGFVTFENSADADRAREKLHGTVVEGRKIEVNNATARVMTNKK
Sequence,RBNS enrichment (R)
GGGAACAACCCUCCCCCUUUCCAUUCAUAAGUCCAAAUGUAAAUAAACGUAUGCAGAAUGUUAGCGUUCGACUGUCUGAUGUAUUGGCUUUCCUGGGCGGCCCCUGCCUU,1.07
CAUGGCUUCACCUGUCCCCGAAACUACCAGCCCUACACCAUUCCUUCUGCCCUGCUUUUGCUAGGUCACAGAGGAUCUGCUUGGUCUUGAUAAGCUAUGUUGUUGCACUU,0.434
UAAAACCAAUUCUGGAAGCAUCUAAGCUUCCAUAAAUAACUUUAAUUCUUAGCAUAAUGACGGCCUUGGAUUGUCUGACCUCAGUAGCUAUUAAAUAACAUCGAGUAACA,0.495
AACUGUAAAGUUCAAUUGUGAAAAUGAAUAUCAUGCAAAUAAAUUAUGCAAUUUUUUUUUCAAAGUACUACUGCAUCUUUGAAGUUCUGCCUGGUGAGUAGGACCAGCCU,1.18
CCUCAUUCGGGCAGAGGGAAAUACGGGACCCGGUCUCUGCCUCCUGGCUGCCCUCCUCCCUGGCUGUGUAAAUAGUCUCCCUAUCCCACGAGGGGGCUUUGAUGGCCCUG,0.406
CAUGUACAGUUUCCUGAAUUGUCACUGUGCAUCCAAACGUAAUGAGUCUAACAGACACUGAUUUCAUGUGCACUCCCCUCUGCUUACAAUGUGCAUUUUUUGGAGGUCAU,0.691
AGGCCUCUGCUCCUGCGCCUGCCUGCAUGCUCUCUCUUGUCGUUGGAGCCUGGAGCCUUGCUCUCUGGGCACAGAGGGCUCUGCUCUCCUGCCUGCUGGGACCUGUGGAU,1.61
UCUGCUUCUAAAAUUGCCCCACCUGCUCUAGAUGGAUCUUUGGGCCUUUCCUCAGUGUUCAUGCAAAAAUUAAAUGUCUUUUUUCAGCAUACUGACUCCAGGUGUAGUUA,0.678
UCAGAUAGACUUGCUGCUACUGGCUUUUCCAUUGUAGAUUGGGUUAUUUUACACGCAGUUCGCCAAAUGGGAUUGCUCUGUAUAGUCAAAUUGGUGAUGGACAGAUGGAC,0.279
CUCACAACAGCCUUCUUACCUCGGGUGAGAGUCAUGAGCACCUUACCAGGCAGGGAGCUUCCCCAGGAUAGUGUGGUGGAGUCAGGACUCACUCCAUCCUGCACUUUACC,0.44
AAAGUAUAACAGGAUUUCUGUAUACUGUGCAAUCAGUUCUUUGAAAAAAAAGUCAAAAGAUAGAGAAUACAAGAAAAGUUUUUGGGAUAUAAUUUGAAUGACUGUGAAAA,0.644
AAGUCUUGGCAUCUUCCACGUAGUGUUGAGCCUGCAGGUGCACAGAAGUCAAGAACUGAGGUUUGGGAACCUCUGCCUAGAUUUCAGAGAAUGUAUGGAAAUGCAUGUAU,6.97

# Block 4 — method: RNA Bind-n-Seq; molecule type: RNA; matrix: in vitro; concentration: not given; setting: RNA with constant flanks, ends assumed; reference: input RNA pool; reading: higher = stronger binding
# Target: RING finger protein unkempt homolog, zinc fingers 1-6, GST-SBP tag (UNK, Homo sapiens, UniProt Q9C0B0, residues 30-357)
# Constant ends, left off below: GGGAGUUCUACAGUCCGACGAUC … CAACAGAGGAUUGAGCAUCA
# Target sequence (chain): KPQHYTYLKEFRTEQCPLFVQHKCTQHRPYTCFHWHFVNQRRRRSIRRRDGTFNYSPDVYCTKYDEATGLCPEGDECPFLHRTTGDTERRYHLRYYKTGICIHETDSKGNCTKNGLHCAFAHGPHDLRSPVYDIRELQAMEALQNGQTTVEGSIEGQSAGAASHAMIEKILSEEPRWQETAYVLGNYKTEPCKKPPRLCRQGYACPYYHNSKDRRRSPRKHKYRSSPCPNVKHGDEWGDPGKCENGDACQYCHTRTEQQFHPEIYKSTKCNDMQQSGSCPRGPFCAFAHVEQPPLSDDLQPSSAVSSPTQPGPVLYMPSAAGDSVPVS
Sequence,bound/input enrichment
GUGUCUAAAUGUUCUGAAGAAAUAAAGAACUAUAUUGAAGAACGUUCUGGAGAGGAUCCUCCCGUAAAGGGAAUUCCAGAAGACAAGAACCCCUUUAAAGAAAAAGGCAGCUGUGUUAUU,0.157 ratio
CUGCUUUUGAUCCUGCCUGUUGUUGAAGCAGUGGAAGCUGGAGACGCGAUUGCACUCUUAUCCGGUGUGGUUCUCAGCAUUACCGGCAUCUGUGCUUGCUUGGGGAUAUACGCAAGAAAG,0.0301 ratio
GGAAUAUUAGGACUGAGGCAACACCUAGGGACACCAAGUGAUGAAGAUAAUGAUUCCUCUUUCCGUGAUUGUCUUUCUUCUCCUUCAUCUAGUCUGCAUUUUGGAGAUUCUGAUACUGUG,0.263 ratio
UUCAAAGCCUUACGUCGACAGUUGCCAGUGACACGUACUAAGAUCGACUGGAACAAGAUCCUCCGCUACAAGAUUGGCAAAGAGAUGCAGAAUGCAUAAAUGAAAAUUGCAUGAGCAGAU,0.108 ratio
CACUUGAUGCCCCCAAGAAUCCUAGUAGAAUGUUUACUACCAAAUGGAAUGAUAGUGACUUCCGAAUGCCUCCGUGAGGCUACAUUAAUAACCAUAAAGCAUGAACUAUUUAAAGAAGCA,0.927 ratio
CUUACCAAACACUUGCUGAAGUCAGUGUGUACUGAUAUCACUAACCUCAUUUUCAACUUCUCCGCUUCGGAUUUAAUGAUGGCAGUAGACGAUCCUGCAGCCAUUACAAGUGAAAUAAGA,0.325 ratio
GUGGGUCAGGACCCUGUCUUGAGACAGGUGGAAGGAAAAAAUCCAGUCACAAUAUUUUCUCCCGCAACUAAUGAGAUGUGGCGAUCAGGGGAUAGUGAAGUUUACCAACUGGGUGAUGUC,0.335 ratio
CCUCAGGCUGUGCAAAGGACACUGAGAGCCUCUUCCACAUAGAAAUACUCUGCUCUCGCCGCCUCUGGAAAGGCCCUGCAGCCCGACAUUGCUGUAGAGCUGGAGGAUCCGUGAGAUGAG,0.378 ratio
GUUUAGAAUUAAUGAAACAGUUGGCGUUCACUGUCAGCAGCAUAGUGUGAUUUUGAAUGAAUCCGGCAGGAAUUCAAGAUUACUACUCUUAGCUCGCUCGCUCUCUCUCUCUCUCCACCG,1.66 ratio
UGCAAUUGGGUAGUGGACACUUGUUUACAUAAGGGAAGUCGAGAUAACAUGAGUGUUGUAUCCGUUUGCUUUUCAAAUGCCCCCAAGGUCUCAGAGGAAGCCGUGAAGAGAGAUUCAGAG,0.221 ratio
UGGGAUAGCCAAGCAAAAUCAGUAAUUAUUUUAAAAUGAACAUAUGUAUUUUUAUUAACUUUCCGUUAAAUACAGAUUUUACAACGAGGUCAGCAUAAGCCUAAAUCUAUAUAGAGGGCU,3.53 ratio

# A few entries again (block 2):
Sequence,lacZ reporter activity
B2 (ANKIB1 RING domain),0
B3 (RFPL2 RING domain),0
B4 (RNF175 RING domain),0
B5 (PHF7 RING domain),0
